Measured values gathered from unrelated publications.
Every numbered part comes from another study and shows a few of its results, in no order.

Series 1
Target: Fragile X messenger ribonucleoprotein 1, C-terminal low-complexity region (Fmr1, Mus musculus, UniProt P35922)
Method: RNA Bind-n-Seq
Form: RNA
Matrix: in vitro
Tested at: 200 nM
Notes: whole 134-nt RNA, ends assumed
Added: 150 mM KCl
Relative to: input library
Reading: higher = stronger binding
The log2 enrichment of `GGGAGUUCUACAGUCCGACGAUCUCCUGUGCUACACAUCGUAUGUACCGAAUCAAACCCCCCCAAACCCCCAAACCCCCAAAAAAGUAUUAUGUUACGCCGUUCGGAUCUGCAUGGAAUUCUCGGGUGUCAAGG` is reported as 0.0761.
`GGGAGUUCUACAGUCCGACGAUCUUGCUAACUUCAAGAUAGAGCCUCCUGGACUUUUCCGUGGCCGCGGCAACCACCCCAAGAUGGGCAUGCUGAAGAGACGAAUCAUGCCCGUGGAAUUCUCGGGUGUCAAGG` gave a log2 enrichment of -0.682.
`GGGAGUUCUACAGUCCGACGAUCUCAAGUCCUGUGCUACACAUCGUAUGUACCGAAUCGGGUUGGGGUUGGGGUUGGAAAGUAUUAUGUUACGCCGUUCGGAUCUGCACUUCCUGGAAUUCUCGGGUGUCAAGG` gave a log2 enrichment of 0.231.
For `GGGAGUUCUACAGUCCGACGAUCGCAGGAAGUAAAAACAAAUGGAAAUGCUUCGGAUAGUGGCAGGGGUGGGGGUAGCUAAGGAAAGGGUGGGAUGGGAGUGGGUAAAGAGUUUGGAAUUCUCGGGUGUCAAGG`, the log2 enrichment was 0.215.
`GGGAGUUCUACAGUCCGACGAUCAAGUCCUGUGCUACACAUCGUAUGUACCGAAUCGGGGAAAAGGAAAAGGGAAAAGGAAAGUAUUAUGUUACGCCGUUCGGAUCUGCACUUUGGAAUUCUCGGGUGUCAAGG` gave a log2 enrichment of -0.514.
With `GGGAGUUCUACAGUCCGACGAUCAGUCCUGUGCUACACAUCGUAUGUACCGAAUCAAACCCAAAUUUUUUUAAAUUUAAAAAAGUAUUAUGUUACGCCGUUCGGAUCUGCACUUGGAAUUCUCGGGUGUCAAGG` the log2 enrichment was -0.00881.
`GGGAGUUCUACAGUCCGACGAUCGUCCUGUGCUACACAUCGUAUGUACCGAAUCGGGAAAAAGGAAAAAGGGAAAAAGGGGAAAGUAUUAUGUUACGCCGUUCGGAUCUGCACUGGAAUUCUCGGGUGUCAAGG` has a log2 enrichment of -0.151.
With `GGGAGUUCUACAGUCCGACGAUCUUUUAGAAAGAGAAGGGGAAGAAAAUGAAGCCUUACAUAAGAUGAUUGCAAACGAGCAAAAGACUUCUCUCCCAAAUUUGUUCCAGGAUAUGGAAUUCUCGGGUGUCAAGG` the log2 enrichment was -1.29.
With `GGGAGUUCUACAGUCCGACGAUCUGGGAGGUGGAUUUUGUUAAUUUUUUUAGCUCAUUUCCAGGGGUGGGAAUUUUUUUUUAAUAUGUGUCAUGAAUAAAGUUGUUUUUGAAAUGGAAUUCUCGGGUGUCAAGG` the log2 enrichment was 0.259.

Series 2
Target: Sal-like protein 4, full length isoform A (SALL4, Homo sapiens, UniProt Q9UJQ4, residues 1-1053)
Sequence of UniProt Q9UJQ4 (whole entry, looked up): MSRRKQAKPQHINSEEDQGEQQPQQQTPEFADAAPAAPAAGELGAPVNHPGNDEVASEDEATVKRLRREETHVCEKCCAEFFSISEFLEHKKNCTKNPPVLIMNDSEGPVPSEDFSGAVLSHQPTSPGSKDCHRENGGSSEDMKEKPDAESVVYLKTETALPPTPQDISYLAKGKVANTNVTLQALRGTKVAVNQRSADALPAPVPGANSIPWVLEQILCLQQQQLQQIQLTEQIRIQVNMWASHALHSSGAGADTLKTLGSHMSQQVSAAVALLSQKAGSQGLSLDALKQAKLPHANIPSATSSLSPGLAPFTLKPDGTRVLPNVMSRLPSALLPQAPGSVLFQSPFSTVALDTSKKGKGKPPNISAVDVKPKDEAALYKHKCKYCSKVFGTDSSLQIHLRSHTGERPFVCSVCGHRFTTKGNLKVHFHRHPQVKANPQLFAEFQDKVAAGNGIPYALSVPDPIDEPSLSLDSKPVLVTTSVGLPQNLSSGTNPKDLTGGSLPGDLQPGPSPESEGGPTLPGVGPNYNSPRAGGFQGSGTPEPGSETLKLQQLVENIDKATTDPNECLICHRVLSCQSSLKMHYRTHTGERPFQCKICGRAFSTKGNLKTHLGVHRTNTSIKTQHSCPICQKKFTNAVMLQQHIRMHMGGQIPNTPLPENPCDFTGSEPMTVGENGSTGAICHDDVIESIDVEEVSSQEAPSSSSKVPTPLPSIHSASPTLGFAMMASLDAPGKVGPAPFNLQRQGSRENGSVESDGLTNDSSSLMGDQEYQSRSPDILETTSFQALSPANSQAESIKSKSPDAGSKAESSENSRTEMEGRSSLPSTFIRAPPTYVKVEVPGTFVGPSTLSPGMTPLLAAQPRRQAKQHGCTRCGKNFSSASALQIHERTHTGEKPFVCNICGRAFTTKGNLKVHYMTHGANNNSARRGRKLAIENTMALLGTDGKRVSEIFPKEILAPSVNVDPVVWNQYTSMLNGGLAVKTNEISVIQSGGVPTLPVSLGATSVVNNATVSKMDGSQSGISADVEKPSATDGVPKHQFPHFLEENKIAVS
Method: universal PBM
Form: double-stranded DNA, one strand shown
Matrix: in vitro
Tested at: 600 nM
Notes: 8-mer, flanks averaged, mean of replicates
Reading: higher = stronger binding
For `TACTAACA`, the E-score was 0.243.
`AATACCCG` gave an E-score of 0.00483.
The E-score of `ACAATGAC` is reported as -0.0663.
`CCAAAAAG` gave an E-score of 0.199.
With `ACCTTGTC` the E-score was -0.153.
The E-score of `CCGGCACG` is reported as -0.192.
The E-score of `AGGCAACC` is reported as -0.128.
`AGCTTAAG` gave an E-score of 0.0483.
`GACGGTCA` has an E-score of -0.188.
`ATACAGGC` gave an E-score of 0.103.
The E-score of `AATAAGAC` is reported as 0.271.
The E-score of `AATTAGGG` is reported as 0.00836.
`CAGTGGTA` gave an E-score of -0.00855.
For `GAGCAGGC`, the E-score was -0.29.
`CAGGTTTA` has an E-score of 0.0536.
The E-score of `AACCCTCA` is reported as -0.0622.
The E-score of `CATAAAAA` is reported as 0.358.
`CGCCCAGA` has an E-score of -0.248.
With `GCGTGGCC` the E-score was -0.402.
`CCCAATCA` has an E-score of -0.0202.
For `AATTGTCC`, the E-score was 0.095.
With `GAGTTGAA` the E-score was 0.075.
`TCACTGAA` gave an E-score of -0.00319.
For `GGGGTTAC`, the E-score was -0.321.
For `CGCGCGAA`, the E-score was -0.251.

Series 3
Target: Histone acetyltransferase KAT6A, winged helix 1, GST fusion (KAT6A, Homo sapiens, UniProt Q92794, residues 1-85)
Method: protein binding microarray
Form: double-stranded DNA, one strand shown
Matrix: in vitro
Tested at: not given
Notes: 8-mer, flanks averaged, mean of 2 arrays, mostly near background
Relative to: not given
Reading: higher = stronger binding
Target sequence (chain): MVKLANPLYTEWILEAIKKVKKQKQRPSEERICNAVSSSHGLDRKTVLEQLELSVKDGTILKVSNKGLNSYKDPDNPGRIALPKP
The E-score of `ATTCATTG` is reported as -0.123.
For `ATACAATC`, the E-score was -0.124.
The E-score of `CATCTCCA` is reported as -0.168.
`AGAGCATG` has an E-score of -0.111.
For `ATAGATTA`, the E-score was -0.158.
`CGTCAGTC` gave an E-score of 0.0759.
`AACTTTAC` gave an E-score of -0.143.
`AACACTGT` gave an E-score of -0.0457.
`AACATGTT` has an E-score of 0.0108.
`ACCGCTGA` has an E-score of 0.122.
`AGGAAACC` has an E-score of 0.0752.
`CCAGTAGC` has an E-score of 0.108.
For `ACGTAATC`, the E-score was 0.0384.
For `AGCGGATC`, the E-score was 0.158.
For `AGCACCTA`, the E-score was -0.156.
The E-score of `CTAATCGC` is reported as 0.184.
The E-score of `AAATGTCT` is reported as -0.0914.
With `AATGGTTG` the E-score was -0.0186.
`GAGCGCGC` gave an E-score of 0.433.
With `GACAGACC` the E-score was -0.149.
With `GATCACGA` the E-score was -0.13.
With `CTTGGATA` the E-score was -0.0269.
`AAAGCTAC` has an E-score of 0.0818.
With `AATGCTGG` the E-score was -0.186.
`ACTGCATA` has an E-score of -0.255.

Series 4
Target: RING finger protein unkempt homolog, zinc fingers 1-6, SBP tag (UNK, Homo sapiens, UniProt Q9C0B0, residues 30-357)
Sequence of UniProt Q9C0B0 (30-357, looked up): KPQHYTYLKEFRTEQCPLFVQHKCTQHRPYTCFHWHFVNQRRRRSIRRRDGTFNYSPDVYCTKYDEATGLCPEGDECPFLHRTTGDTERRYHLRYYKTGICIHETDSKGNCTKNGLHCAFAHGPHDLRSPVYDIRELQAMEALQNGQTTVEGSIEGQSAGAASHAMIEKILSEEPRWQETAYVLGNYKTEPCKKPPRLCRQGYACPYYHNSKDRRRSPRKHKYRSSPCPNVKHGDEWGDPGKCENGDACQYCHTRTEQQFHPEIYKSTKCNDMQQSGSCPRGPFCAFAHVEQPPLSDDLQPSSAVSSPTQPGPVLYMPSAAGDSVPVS
Method: RNA Bind-n-Seq
Form: RNA
Matrix: in vitro
Tested at: 100 nM
Notes: RNA with constant flanks, vertebrate orthologous sites, ends assumed
Relative to: input RNA pool
Reading: higher = stronger binding
`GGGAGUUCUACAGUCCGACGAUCCUCUACGGGCCCCGCAAAGUUGAGAUCAUUGAAGAGGAAGCGGAACAAUAAUCUACAUUUGGGUAUUUCUGACUAGGUGUGAAAUAAAUGUUUGUUGAUCAUUUCUUAACCAGAGCUUUACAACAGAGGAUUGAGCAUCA` gave a bound/input enrichment of 0.423 ratio.
With `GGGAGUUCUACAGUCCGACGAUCGGAAGUCCCCAUUGUCACUGAGAACCACCAAAUUUGACUUUCACGUUUGGUCUCAGAAUUUAGGUUCCUGCCCUGUUGUUUUUCUUUCUUUUUCUUAAAACAAACAAACAGUUUUCAGAACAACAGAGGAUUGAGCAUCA` the bound/input enrichment was 0.228 ratio.
The bound/input enrichment of `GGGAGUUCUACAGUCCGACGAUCUUCAGGCACAACUGACUGGUUCACAGCAUUCCUUACACAGUUAUCUAUCAAAUGCAAGUGUGGUUAAUUUUCAGGAAACAAGCAGGCAGUCAUCUUUAUCCUGUAGCCCUAUUGGAGAUUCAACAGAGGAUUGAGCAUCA` is reported as 1.16 ratio.
The bound/input enrichment of `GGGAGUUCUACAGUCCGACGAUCAGUAUCCCAGUUGUGCCGUGUUGGGUUGGCGUUGUACAGAAAUUAACAGCCAUAUUGGUCUAGAAAUGUUAAACAUAAUUUUUUCCAUUUGUACAGGGGUAACGCACUGUAUUAAAUAUGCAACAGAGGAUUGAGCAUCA` is reported as 0.771 ratio.
For `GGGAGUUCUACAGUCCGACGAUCGUUGUGACCCAUUUAACAUACACAGGAAAGUAUCAAAGAAAAACUUACGCGCAAUCGACUUAGAUGAUGCAGCUUUUCUAAGUGCCAAGUUUGGAAGACAGUUUGUACCUGGUUGGAAGCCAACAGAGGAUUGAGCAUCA`, the bound/input enrichment was 0.882 ratio.
The bound/input enrichment of `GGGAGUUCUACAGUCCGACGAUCUGUGUGUGGGUGCAGGGUGCUCUGUACCAGUGCUCAUCAUCCCUUCAUACCAACUGUCCCUAGUUAUAGGAAUUUAAUAUUUUUAAAAGUUUUACAUUGCUGUAUAUUCAAAGAUUUGUUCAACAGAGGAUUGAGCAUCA` is reported as 0.609 ratio.
The bound/input enrichment of `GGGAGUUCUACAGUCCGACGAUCUGCUGUUAAUGCACUGUAUACUAGGCAUCUUCUGACCUUAGUGUAAUCUAGGAGAUUUUAUAGUUUUAUUUUAAUGAAGUCUGGAUUGAGGCAAAGCUGGUAGGAGUACGUAGUCUUUUACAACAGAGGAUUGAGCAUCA` is reported as 2.75 ratio.
With `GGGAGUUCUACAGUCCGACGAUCCUUUUAAUCGACUAUGUCUGUAAAUGUAUAUUGAGAGAAUUGAAGUAUUUAUAAACAGAGUGAUUUAUUUAAGGAAAAGCUUAUCCCUCUUUCCUAAGGUGGUCUGUGUUAAUUCCAUUUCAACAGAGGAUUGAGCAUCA` the bound/input enrichment was 0.19 ratio.

A few entries again (series 2):
The E-score of `AATAAGAC` is reported as 0.271.
The E-score of `ACAATGAC` is reported as -0.0663.
The E-score of `AGGCAACC` is reported as -0.128.
`CAGTGGTA` gave an E-score of -0.00855.
With `GAGTTGAA` the E-score was 0.075.
With `ACCTTGTC` the E-score was -0.153.
`AGCTTAAG` gave an E-score of 0.0483.
The E-score of `AACCCTCA` is reported as -0.0622.
For `CGCGCGAA`, the E-score was -0.251.
`ATACAGGC` gave an E-score of 0.103.
